Experimental data from different studies.
Numbered parts are unrelated; each lists some results of a single study. Substitutions count along the parent as printed.

Sample 1 — target: CCNE2, cyclin fold, Cln2 fusion (human); technique: yeast growth competition, sequencing; sample: yeast; setting: strong parent motif; reference: not given; reading: higher = stronger binding
Starting sequence: CDKN1B docking peptide (human); PSACRNLFGPVDH
Change | normalised enrichment score
RSACRNLFGPVDH [P1R] | 1.7
PSACRNLFGPEDH [V11E] | 1.5
PSACRNLFGVVDH [P10V] | 1.42
PSACRNLDGPVDH [F8D] | -0.205
PSDCRNLFGPVDH [A3D] | -0.0549
PSACRNLFGPVDE [H13E] | 0.828
PSACRNLSGPVDH [F8S] | 0.688
PMACRNLFGPVDH [S2M] | 0.425
PSACRNLNGPVDH [F8N] | 0.0517
PSACINLFGPVDH [R5I] | 0.0774
SSACRNLFGPVDH [P1S] | 1.22
KSACRNLFGPVDH [P1K] | 2.09
PSACRNLFGSVDH [P10S] | 1.64
PSSCRNLFGPVDH [A3S] | 0.262
HSACRNLFGPVDH [P1H] | 1.88
PSLCRNLFGPVDH [A3L] | 0.749
PSACRTLFGPVDH [N6T] | 0.687
PSAGRNLFGPVDH [C4G] | 0.0406
PSACRNLGGPVDH [F8G] | -0.138
PSACRNLFGAVDH [P10A] | 1.12
PSACMNLFGPVDH [R5M] | 0.407
PSACNNLFGPVDH [R5N] | 0.236
PSACRNLFNPVDH [G9N] | 0.684

Sample 2 — technique: DHFR PCA, dose-response; sample: yeast; setting: Hill fit, mean, not affinity; together with: (+)-ABA, dose series; reading: lower = more sensitive
Target: ABI1, truncated, D143A, DHFR fusion (Arabidopsis thaliana, UniProt P49597)
Starting sequence: PYL1, truncated, DHFR fusion (Arabidopsis thaliana, UniProt Q8VZS8); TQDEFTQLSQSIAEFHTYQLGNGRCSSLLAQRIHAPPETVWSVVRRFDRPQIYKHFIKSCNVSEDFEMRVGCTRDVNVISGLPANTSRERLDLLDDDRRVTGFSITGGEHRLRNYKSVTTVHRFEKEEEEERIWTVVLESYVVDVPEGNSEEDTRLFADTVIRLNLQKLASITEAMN
Change | ABA EC50
V43W | 275 µM
V78A | 53.5 µM
A170T | 18.2 µM
R45T | 195 µM
H34A | 3.17 µM
G102Q | 69.6 µM
L93G | 326 µM
F5V | 2.14 µM
L93F | 5.18 µM
S26P | 266 µM
R163E | 48.5 µM
D3A | 2.91 µM
D75Q | 0.669 µM
V62C | 8.85 µM
T6R | 5.72 µM
L94S | 137 µM
E131A | 2.82 µM

Sample 3 — technique: RNA Bind-n-Seq; molecule type: RNA; sample: in vitro; concentration: 365 nM; reference: no-protein control; reading: higher = stronger binding
Target: RNA binding protein fox-1 homolog 2, RRM domain, GST-SBP tag (RBFOX2, Homo sapiens, UniProt O43251-10, residues 100-194)
Setting: natural RNA segment, single round, ends assumed
All sequences stand within: GGGAGUUCUACAGUCCGACGAUC … UGGAAUUCUCGGGUGCCAA
Construct (chain): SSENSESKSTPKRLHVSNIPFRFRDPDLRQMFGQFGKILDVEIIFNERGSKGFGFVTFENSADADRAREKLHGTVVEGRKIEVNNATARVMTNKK
Strand | RBNS enrichment (R)
AUGGACUACCCUGAGGAUGGGAUCACCCCCUUCGUGCCUCAUGGAAUUCAGUCCCAUGCACUACACUCUGGAUGGUGUAUGACUGGAUGAAUGGGUUUCUAUAUAUGGGU | 0.263
UUGGGGAGAUAUUUGGGAGCAAACUUAUUUAGAUUUAGAGUAAACUUUUCAUUAUAGAGCAAGUAAAAACAGACAAAUGAAACAACCUAGUGUUUCACAUAAAAAUACUU | 0.656
CUGUAGUUUAGGGGUUGAUGGUGGUUGAAAUUGAUUUCUGGCUGGUUACUAAGGUGCCUGCUAGCCAUUGUAUAAAAUUAAAACAUGAAGAAUAUUUUUUUUUUGAGCAU | 1.15
CCUGGCCCAUUCUGAGAAAUGGAGCUGUAGCUAUGGCCUAGCCAGCACCCCCAGUGCUCGCUCAUGGGAAAUAUCAGCCCUAGGCUGGUUGUUUUUACAAAUCUCUCUCA | 0.229
UUUUGAGAUUAAAAAAAAUACUUCUAGCUUUAGCCAGGUGUGCAUGUUGCUGCCAUUUUGCAUUUUUGAAUCAUCUUGUGUAAUUGUCACCAUGAAAGUGUUACUCAGAA | 12.9
UCAUUUAAAAACUAUAUUUACAGAAGAUGUUUGGUUGCUGGGGGGGCUUUUUUAGGUUUUGGGGCAUUUGUUUUUUGUAAAUAAGAUGAUUAUGCUUUGUGGCUAUCCAU | 1.28
GGCAGUGUUAACAUUGUACAGUGUAUGCAUAGAGGAGUCUCCUCUAUUUGAAGAACAAUGCAAAAUGAGGCUUUCAUUGAAGGGAGAAAAGAGAAAAAAAGAAAAAAAAA | 4.6
AAGCAAACUAAGUCAAGAACCGUAGUAUCUGUAGGCACUUAGUUAAGUAUAGCAACUCAAACCAGACCUGCAUCCAUCCGAGACAAACGUUCCUCCUUCACCCUUGUUUU | 0.495
CUGGUGCAGGUCUCCACCUGCACAUUGGGUGGGGCUCCUGGGAGGGAGACUCAGCCUUCCUCCUCAUCCUCCCUGACCCUGCUCCUAGCACCCUGGAGAGUGCACAUGCC | 2.87
UUACAGGUGAUCGCUGGUCUCCUGCCUCCACCUCCUGAGUGCUGGGGUUACAGGUGAUCGCUGGUCUCCUGCCUCCACCCCCUGAGUGCUGGGGUUACAGGUGUGAUCAC | 0.201
UCUUGCUCUGUGGAAUUUUGUGCUUACUACUGUAUAGUGCAUGUGGCUUAGGUUACCCUAGCUGGUUUUGUCCGUGUAAACAUUGAAAGUAUUAUAUUUUUAUAGAAAUG | 1.47
UCAGAGUGAAAAAGUAAAUUUUAUAGGAAAAAAGGGUAUCAUGAUGAAAUUCAAAAUCUUAUUUUCUAAGGUCAGUGUGCAUUUGUUUAGUUUUGAUGCUUUUCAAAUUA | 0.395

Sample 4 — technique: protein binding microarray; molecule type: double-stranded DNA, one strand shown; sample: in vitro; concentration: not given; reference: not given; reading: higher = stronger binding
Target: Histone acetyltransferase KAT6A, winged helix 1, GST fusion (KAT6A, Homo sapiens, UniProt Q92794, residues 1-85)
Setting: 8-mer, flanks averaged, mean of 2 arrays, mostly near background
Construct (chain): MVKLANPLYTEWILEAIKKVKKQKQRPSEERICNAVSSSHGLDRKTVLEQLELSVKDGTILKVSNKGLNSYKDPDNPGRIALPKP
Strand | E-score
ATTAGGAA | -0.0226
TTAACTAA | 0.00574
CCCCATGA | -0.369
CTGCTTTC | -0.206
GCCTGATA | 0.00556
CAAGGGCC | -0.00636
ATAGCCGC | 0.404
CATAATCG | 0.0169
CAAGTACG | 0.0286
CTTGGTCA | -0.2
GCCGGCAC | 0.368
ACCCGACA | 0.152
CAGCTCCA | -0.254
CGACTTAA | -0.105
GACTGCAC | -0.139
AAGCAATT | -0.0343
ACAGATAC | -0.0544
CATCTGGA | -0.0926
ATAGCTAC | -0.174
ACCGTTTG | 0.0576
CCAGATTC | -0.202
AGGAGTAT | -0.198
ATCAGGTC | -0.0185
CAAACCGA | 0.000495
GCGGTGTA | 0.189

Sample 5 — target: UBE2G2 UBC core domain (UniProt P60604); technique: yeast two-hybrid; sample: yeast; setting: mostly zero background; reference: not given; reading: higher = stronger interaction
UniProt P60604, sequence (whole entry, looked up): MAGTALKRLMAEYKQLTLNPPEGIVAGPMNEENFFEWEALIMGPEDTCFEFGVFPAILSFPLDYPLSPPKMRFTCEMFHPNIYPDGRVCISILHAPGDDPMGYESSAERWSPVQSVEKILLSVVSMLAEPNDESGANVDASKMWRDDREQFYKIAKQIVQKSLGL
B1: ZMIZ2 RING domain (UniProt Q8NF64); chain GTIPGTPGPNGEDGVEQTAIKVSLKCPITFRRIQLPARGHDCRHIQCFDLESYLQLNCERGTWRCPVCNKTALLEGLEVDQYMLGILIYIQNSDYEEITIDPTCSWK
B2: RNF133 RING domain (UniProt Q8WVZ7); chain DEEINPNGDSCVICFERYKPNDIVRILTCKHFFHKNCIDPWILPHGTCPICKCDILKVLGIQ
B3: RNF19A RING domain (UniProt Q9NV58); chain ISKQIGDFIECPLCLLRHSKDRFPDIMTCHHRSCVDCLRQYLRIEISESRVNISCPECTERFNPHDIR
B4: MAP3K1 RING domain (UniProt Q13233); chain NSIKDEEEQMCPICLLGMLDEESLTVCEDGCRNKLHHHCMSIWAEECRRNREPLICPLCRSKWRSHDFYS
B5: MDM4 RING domain (UniProt O15151); chain MEDCQNLLKPCSLCEKRPRDGNIIHGRTGHLVTCFHCARRLKKAGASCPICKKEIQLVIKVF
B6: RFWD3 RING domain (UniProt Q6PCD5); chain ASMDEEEGDTCTICLEQWTNAGDHRLSALRCGHLFGYRCISTWLKGQVRKCPQCNKKARHSDIVV
B7: RBCK1 RING domain (UniProt Q9BYM8); chain SLVLNTEPAECPVCYSVLAPGEAVVLRECLHTFCRECLQGTIRNSQEAEVSCPFIDNTYSCSGKLLEREIK
Molecule | lacZ reporter activity
GSRLQEINDVCAICYHEFTTSARITPCNHYFHALCLRKWLYIQDTCPMCHQKVYIEDDIK (RNF139 RING domain (UniProt Q8WU17)) | 2100
B1 (ZMIZ2 RING domain) | 0
B2 (RNF133 RING domain) | 11300
B3 (RNF19A RING domain) | 0
FDGDVDPDLKCALCHKVLEDPLTTPCGHVFCAGCVLPWVVQEGSCPARCRGRLSAKELN (PDZRN3 RING domain (UniProt Q9UPQ7)) | 0
KETIKKTTKPCPRCHVPVEKNGGCMHMKCPQPQCRLEWCWNCGCEWNRVCMG (PRKN RING domain (UniProt O60260)) | 0
AMYLQENGIDCPKCKFSYALARGGCMHFHCTQCRHQFCSGCYNAFYAKNKC (RNF31 RING domain (UniProt Q96EP0)) | 0
B4 (MAP3K1 RING domain) | 0
B5 (MDM4 RING domain) | 0
B6 (RFWD3 RING domain) | 0
KLRKLKEAMLCMVCCEEEINSTFCPCGHTVCCESCAAQLQSCPVCRSRVEHVQHVY (MYLIP RING domain (UniProt Q8WY64)) | 0
B7 (RBCK1 RING domain) | 0

Some of these lines once more (sample 5):
Molecule | lacZ reporter activity
KETIKKTTKPCPRCHVPVEKNGGCMHMKCPQPQCRLEWCWNCGCEWNRVCMG (PRKN RING domain (UniProt O60260)) | 0
AMYLQENGIDCPKCKFSYALARGGCMHFHCTQCRHQFCSGCYNAFYAKNKC (RNF31 RING domain (UniProt Q96EP0)) | 0
B4 (MAP3K1 RING domain) | 0
B5 (MDM4 RING domain) | 0
B6 (RFWD3 RING domain) | 0
